Assay results of several laboratories.
Each line is one published result; not all experiments were run side by side. Numbers after ± are the reported error.
Organism: HIV-1

CC[C@H](C)[C@H](N)C(=O)N[C@@H](CC(C)C)C(=O)N[C@@H](CCCNC(=N)N)C(=O)N[C@@H](Cc1c[nH]c2ccccc12)C(=O)N[C@@H](CO)C(=O)N[C@@H](CCCNC(=N)N)C(=O)N[C@@H](CCCCN)C(=O)N[C@@H](CC(C)C)C(=O)N1CCC[C@H]1C(=O)N[C@@H](CS)C(=O)N[C@H](C(=O)N[C@@H](CO)C(=O)O)C(C)C
IC50 (viral replication, inhibitor, β-galactosidase reporter; TZM-bl, NL4-3, CXCR4-tropic; 3 days): 7 nM

Cc1cn([C@@H]2C[C@@H](O)[C@H](CO)O2)c(=O)[nH]c1=O
IC50 (viral replication, MTT; MT4): > 100000 nM

CC[C@H](C)[C@H](N)C(=O)N[C@H](C(=O)N[C@@H](Cc1ccccc1)C(=O)N[C@@]1(C)CCC/C=C\CCC[C@@](C)(C(=O)N[C@@H](Cc2ccc(O)cc2)C(=O)N[C@@H](Cc2ccc(O)cc2)C(=O)NCC(=O)N[C@@H](CCCCN)C(=O)N[C@@H](CCCCN)C(=O)N[C@@H](CCCCN)C(N)=O)NC(=O)[C@H](CC(C)C)NC(=O)[C@H](CC(C)C)NC(=O)[C@H](CC(=O)O)NC1=O)[C@@H](C)O
IC50: > 100000 nM

COc1ccccc1NC(=O)c1ccccc1OCc1ccc(C#N)cc1
IC50 (viral replication, measured: reverse transcriptase activity; H9 expressing APOBEC3G, LAI; 7 d): 3100 nM

O=c1cc(-c2ccc(O)c(O)c2)oc2cc(O)cc(O)c12
IC50 (viral replication; TZM-bl, NL4-3, CXCR4-tropic; 48 h): 1320 nM

Cc1nc(C(NC(=O)c2ccc(-c3ccc(Cl)cc3)[nH]2)C2CCCCN2)sc1CO (mixture of isomers)
IC50 (Env pseudovirus infection; TZM-bl, subtype B SC422661.8): 600 ± 100 nM

Cc1ccc(-c2ccc3c(c2)C=C(C(=O)Nc2ccc(C[N+](C)(C)C4CCOCC4)cc2)CCC3)cc1
IC50 (viral replication; PBMC, Ba-L, R5): 28 ± 32 nM

CC[C@H](C)[C@H](NC(=O)[C@H](CC(C)C)NC(=O)[C@H](CCC(=O)O)NC(=O)[C@H](CCC(=O)O)NC(=O)[C@@H](NC(=O)[C@H](CCCCN)NC(=O)[C@H](CCCCN)NC(=O)[C@@H](NC(=O)[C@H](Cc1ccc(O)cc1)NC(=O)[C@H](CCC(=O)O)NC(=O)[C@H](CCC(=O)O)NC(=O)[C@@H](NC(=O)[C@H](CCCCN)NC(=O)[C@H](CCCCN)NC(=O)[C@H](CC(=O)O)NC(=O)[C@H](Cc1c[nH]c2ccccc12)NC(=O)[C@H](CCC(=O)O)NC(=O)[C@H](CCC(=O)O)NC(=O)[C@H](Cc1c[nH]c2ccccc12)NC(=O)[C@@H](NC(=O)[C@@H](N)CCSC)[C@@H](C)O)[C@@H](C)CC)[C@@H](C)O)[C@@H](C)CC)C(=O)N[C@@H](CCCCN)C(=O)N[C@@H](CCCCN)C(=O)N[C@@H](CO)C(=O)O
IC50 (virus neutralization; BG505): 15.2 ± 0.2 nM

CC(C)OC(=O)OCOP(=O)(CO[C@H](C)Cn1cnc2c(N)ncnc21)OCOC(=O)OC(C)C
IC50 (viral cytopathicity; MT4 cells, wild type): 203 nM

C#C[C@]1(CO)O[C@@H](n2cnc3c(N)nc(F)nc32)C[C@@H]1O
IC50 (MT-4): 0.4 nM

CC(C)C[C@H](NC(=O)CCCCCNC(=O)CCCC[C@@H]1SC[C@@H]2NC(=O)N[C@@H]21)C(=O)N[C@@H](CO)C(=O)N[C@@H](CC(=O)O)C(=O)N[C@@H](CO)C(=O)N1CCC[C@H]1C(=O)N[C@@H](CC(N)=O)C(=O)NCC(=O)N1CCC[C@H]1C(=O)N[C@@H](Cc1c[nH]c2ccccc12)C(=O)N[C@H](C(=O)N[C@@H](Cc1c[nH]c2ccccc12)C(=O)N[C@H](C(=O)N1CCC[C@H]1C(=O)N[C@@H](C)C(=O)N[C@@H](Cc1ccccc1)C(=O)N[C@@H](CS)C(=O)N[C@@H](CCC(N)=O)C(=O)N[C@@H](C)C(=O)N[C@H](C(=O)NCC(=O)O)C(C)C)C(C)C)C(C)C
IC50 (viral replication, inhibitor, SEAP reporter; CEMx174 SEAP reporter, NL4-3; 3 days): 10900 ± 2280 nM

Cc1cn([C@H]2C[C@H](N=[N+]=[N-])[C@@H](CO)O2)c(=O)[nH]c1=O
IC50 (virus neutralization; SF162): 110 ± 23.5 nM

COc1cc(-c2oc3cc(O)cc(O)c3c(=O)c2O)ccc1O
IC50 (viral replication; TZM-bl, NL4-3, CXCR4-tropic; 48 h): 640 nM

CC(C)CN(C[C@@H](O)[C@H](Cc1ccccc1)NC(=O)O[C@H]1CO[C@H]2OCC[C@H]21)S(=O)(=O)c1ccc(N)cc1
IC50 (viral replication; highly PI-resistant variants): 6.1 to 275 nM

C=C(C)[C@]12C[C@@H](COC(=O)c3ccccc3)[C@@]34OC5(O[C@@H]1[C@@H]3[C@@H]1O[C@]1(COC(C)=O)[C@@H](OC(C)=O)[C@@]1(O)[C@H]4[C@H]([C@H](C)[C@@H]1OC(=O)c1ccccc1)[C@H](C)CCCCCC[C@H]5OC(C)=O)O2
IC50 (viral replication, inhibitor; MT-4 cells, NL4-3 NanoLuc-sec; 72 h): > 1 nM

CC(C)(C)C(=O)OCOP(=O)(COCCn1cnc2c(N)ncnc21)OCOC(=O)C(C)(C)C
IC50 (viral replication, MTT; MT4): 240 ± 120 nM

Cc1cn([C@H]2C[C@H](N=[N+]=[N-])[C@@H](CO)O2)c(=O)[nH]c1=O
IC50 (viral cytopathicity; MT4 cells, wild type): 37 nM

Cc1cn([C@H]2C=C[C@@H](CO)O2)c(=O)[nH]c1=O
IC50 (viral replication, MTT; MT4): 650 ± 30 nM

CC(=O)N[C@@H](CC(C)C)C(=O)N[C@@H](CS)C(=O)N[C@@H](CC(=O)O)C(=O)N[C@@H](CS)C(=O)N1CCC[C@H]1C(=O)N[C@@H](CC(N)=O)C(=O)NCC(=O)N1CCC[C@H]1C(=O)N[C@@H](Cc1c[nH]c2ccccc12)C(=O)N[C@H](C(=O)N[C@@H](Cc1c[nH]c2ccccc12)C(=O)N[C@@H](C)C(=O)N1CCC[C@H]1C(=O)N[C@@H](C)C(=O)N[C@@H](Cc1ccccc1)C(=O)N[C@@H](CS)C(=O)N[C@@H](CCC(N)=O)C(=O)N[C@@H](C)C(=O)N[C@H](C(=O)NCC(=O)O)C(C)C)C(C)C
IC50 (viral replication, inhibitor, SEAP reporter; CEMx174 SEAP reporter, NL4-3; 3 days): 27500 ± 14200 nM

COc1ccc(S(=O)(=O)N(CC(C)C)C[C@@H](O)[C@H](Cc2ccccc2)NC(=O)O[C@H]2CCO[C@H]3OC[C@@H](OC)[C@H]32)cc1
IC50 (viral replication, MTT): 47 nM

CCCCOn1cc(CC(=O)Nc2ccncc2Cl)c2ccccc21
IC50 (viral replication; HEK293T): 40 ± 10 nM

N#C[C@]1(CO)O[C@@H](n2cnc3c(N)nc(N)nc32)C[C@@H]1O
IC50 (viral replication, MTT; MT4): 0.4 ± 0.1 nM

COc1cc(/C=C/C(=O)CC(=O)/C=C/c2ccc(OCCOC(=O)CCC(NC(=O)c3ccc(NCc4cnc5nc(N)[nH]c(=O)c5n4)cc3)C(=O)O)c(OC)c2)ccc1O (centres unmarked)
IC50 (viral replication, MTT; MT-4, IIIB): > 63 nM

C#C[C@@]1(CO)C=C[C@H](n2cc(C)c(=O)[nH]c2=O)O1
IC50 (viral replication, MTT; MT4): 260 ± 10 nM

CCCOn1cc(CC(=O)Nc2ccccc2Cl)c2ccccc21
IC50 (viral replication; HEK293T): 490 ± 110 nM

C=C1[C@H](CO)[C@@H](O)C[C@@H]1n1cnc2c(=O)[nH]c(N)nc21
IC50 (viral replication, MTT; MT4): ~1000 nM

Cc1nc(C(CN)NC(=O)C(=O)Nc2ccc3c(c2)OCO3)sc1CO (centres unmarked)
IC50 (pseudovirus infection; TZM-bl): > 53000 nM

N#C[C@]1(CO)O[C@@H](n2cnc3c(=O)[nH]c(N)nc32)C[C@@H]1O
IC50 (viral replication, MTT; MT4): 0.4 ± 0.1 nM

COc1cc(/C=C/C(=O)C(CCOC(=O)CCC(NC(=O)c2ccc(NCc3cnc4nc(N)[nH]c(=O)c4n3)cc2)C(=O)O)C(=O)/C=C/c2ccc(O)c(OC)c2)ccc1O (centres unmarked)
IC50 (viral replication, MTT; MT-4, IIIB): > 63 nM

Excerpt of the above:
Cc1cn([C@H]2C[C@H](N=[N+]=[N-])[C@@H](CO)O2)c(=O)[nH]c1=O
IC50 (virus neutralization; SF162): 110 ± 23.5 nM

COc1cc(-c2oc3cc(O)cc(O)c3c(=O)c2O)ccc1O
IC50 (viral replication; TZM-bl, NL4-3, CXCR4-tropic; 48 h): 640 nM

CC(C)CN(C[C@@H](O)[C@H](Cc1ccccc1)NC(=O)O[C@H]1CO[C@H]2OCC[C@H]21)S(=O)(=O)c1ccc(N)cc1
IC50 (viral replication; highly PI-resistant variants): 6.1 to 275 nM
